Experimental data from different studies.
A part holds a random share of what one study measured.

Set 1 — method: RNA Bind-n-Seq; form: RNA; sample: in vitro; tested at: 365 nM; relative to: no-protein control; reading: higher = stronger binding
Target: RNA binding protein fox-1 homolog 2, RRM domain, GST-SBP tag (RBFOX2, Homo sapiens, UniProt O43251-10, residues 100-194)
Notes: natural RNA segment, single round, ends assumed
Residues (chain): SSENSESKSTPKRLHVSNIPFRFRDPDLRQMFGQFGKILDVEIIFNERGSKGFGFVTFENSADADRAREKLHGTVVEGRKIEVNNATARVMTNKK
Oligonucleotide	RBNS enrichment (R)
GGGAGUUCUACAGUCCGACGAUCAGUUACUUCUUGUAAAAACUUUUAAGCCAUUUAUCAACAAGUUCUUGUUGACUCAGGGCAUAAUGAGUUCCUGAGACAUGCUCUUUUGGGGGCUGGGGCUUUAGCUAGAAUGGAAUUCUCGGGUGCCAA	0.217
GGGAGUUCUACAGUCCGACGAUCCCAAAGGGGAAACACAUUUGAAAGCUUUUAAAAUGUAGACUUCAUUAUCCAUACCCAUGGAAACUAAAGAGAAGCCUGCCCCAUUUCUUCGUCCUUUGUUUGCCUUUGUGUGGAAUUCUCGGGUGCCAA	0.599
GGGAGUUCUACAGUCCGACGAUCAGGUCUACUCCAAAGUCCUCUCUGCCAUCUUCGGACCAUCCUGGCCCUACUUCUGUGUGCUCGAGCUGCCCCAGCCAUCACUGAGCCCACUCAGGACUGCUCCUGGAAGAUGGAAUUCUCGGGUGCCAA	0.336

Set 2 — method: protein-binding microarray; form: double-stranded DNA, one strand shown; sample: in vitro; tested at: 250 nM; notes: 60-bp whole probe; together with: salmon DNA 0.4 mg/ml; relative to: random background probes; reading: higher = stronger binding
Target: Interferon regulatory factor 5, full length, phosphomimetic (IRF5, Homo sapiens, UniProt Q13568-2, residues 1-514, K96S/S451D/S453D/S456D/S462D)
Oligonucleotide	log fluorescence
GCCTAGCACGAATGTCTTCCCCTCTCATTGTGCTAGGTCTTGATTCGCTTGACGCTGCTG	0.249 z-score
GCCTAGCACTATTTTTTTCTAATTGAAATGTGCTAGGTCTTGATTCGCTTGACGCTGCTG	1.43 z-score
GCCTAGCACGACGATCTCAGTCTCTAGACGTGCTAGGTCTTGATTCGCTTGACGCTGCTG	-0.0864 z-score
GCCTAGCACGACGTACTGAGTTTCGAGACGTGCTAGGTCTTGATTCGCTTGACGCTGCTG	3.95 z-score

Set 3 — method: universal PBM; form: double-stranded DNA, one strand shown; sample: in vitro; tested at: not given; reading: higher = stronger binding
Target: Sal-like protein 4, full length isoform B (SALL4, Homo sapiens, UniProt Q9UJQ4-2, residues 1-616)
Notes: 8-mer, flanks averaged, mean of replicates
Oligonucleotide	E-score
GGACTGCC	-0.244
AGTCTACC	-0.116
CCCACTGC	-0.173
GAAACTGA	-0.097
AATGTTCG	0.141

Single results of other studies
Substance	target	assay	system	conditions	how to read	endpoint	result
PhoQ, residues 284 288 289 292 302 303 SASVAL	PhoP, residues 12 14 15 18 19 NMSFL (Escherichia coli, UniProt P23836)	Sort-seq, refers to: YFP reporter	E. coli	PhoQ-PhoP variant library, together with: 10 µM Mg2+	relative to: high Mg2+ state, higher = stronger signaling	fold induction	20.3
